{"data": "Results of several laboratories", "note": "Lines come from different studies, so protocols differ. Values joined by “and” are separate records of one study, mostly repeats; a detail may differ. Numbers after ± are the reported error."}
{"SMILES": "O=C(O)C(Cc1c[nH]cn1)N1C(=O)c2ccc3c4ccc5c6c(ccc(c7ccc(c2c37)C1=O)c64)C(=O)N(CCN1CCCCC1)C5=O (stereo not shown)", "target": "telomerase", "test": "enzyme activity, inhibitor, TRAP", "system": "cell-free", "setting": "pH 7.4", "quantity": "IC50", "value": "3600 ± 200 nM"}
{"SMILES": "C[n+]1cc(/C=N/NC(=O)c2cccc(C(=O)N/N=C/c3cc4ccccc4[n+](C)c3)n2)cc2ccccc21", "target": "telomeric G4 DNA hybrid-2", "test": "FRET melting", "setting": "1 µM, DNA 0.2 µM, added: duplex DNA competitor 10 µM", "quantity": "ΔTm", "value": "18 ± 0.9 °C"}
{"SMILES": "NCCOc1cc(NC(=O)c2cc(OCc3cn(Cc4ccc(C(=O)O)cc4)nn3)cc(C(=O)Nc3cc(OCCN)c4ccccc4n3)n2)nc2ccccc12", "target": "K-ras G-quadruplex DNA", "test": "FRET melting", "setting": "1 µM, pH 7.4, added: 60 mM potassium", "quantity": "ΔTm", "value": "4.8 ± 0.4 K"}
{"SMILES": "C[n+]1cc(/C=N/NC(=O)c2ccc3ccc4ccc(C(=O)N/N=C/c5cc6ccccc6[n+](C)c5)nc4c3n2)cc2ccccc21", "target": "telomeric G4 DNA hybrid-2", "test": "FRET melting", "setting": "1 µM, DNA 0.2 µM", "quantity": "ΔTm", "value": "24.1 ± 0.5 °C"}
{"SMILES": "C=CC(=O)N1[C@H](c2ccc3c(c2)OCO3)c2[nH]c3ccccc3c2C[C@@H]1C(=O)N1CCN(C)CC1", "target": "human cyclin E1 N112C-3xFLAG:CDK2", "test": "co-IP with TMT proteomics, measured: HSPA8", "setting": "concentration not given, P11142", "scale": "baseline: wild type DMSO", "quantity": "relative co-enrichment", "value": "95%"}
{"SMILES": "NCCOc1cc(NC(=O)c2cc(Cl)cc(C(=O)Nc3cc(OCCN)c4ccccc4n3)n2)nc2ccccc12", "target": "c-myc G-quadruplex DNA", "test": "FRET melting", "setting": "1 µM, pH 7.4, added: 60 mM potassium", "quantity": "ΔTm", "value": "16 ± 1 K"}
{"SMILES": "O=C(N/N=C/c1ccc2c(ccc[n+]2Cc2ccccc2)c1)c1ccc2ccc(C(=O)N/N=C/c3ccc4c(ccc[n+]4Cc4ccccc4)c3)nc2n1", "target": "telomeric G4 DNA hybrid-2", "test": "FRET melting", "setting": "1 µM, DNA 0.2 µM", "quantity": "ΔTm", "value": "20.5 ± 0.8 °C"}
{"SMILES": "O=S(=O)(NCc1ccncc1)c1ccc(C2CCCCC2)cc1", "target": "PU.1, mouse", "test": "reporter gene, inhibitor, luminescence", "system": "BV-2 PU.1 luciferase reporter", "setting": "dose not given", "quantity": "maximal inhibition", "value": "51%"}
{"SMILES": "CC[n+]1cccc2cc(/C=N/NC(=O)c3cncc(C(=O)N/N=C/c4ccc5c(ccc[n+]5CC)c4)n3)ccc21", "target": "telomeric G4 DNA hybrid-2", "test": "FRET melting", "setting": "1 µM, DNA 0.2 µM, added: duplex DNA competitor 10 µM", "quantity": "ΔTm", "value": "20.3 ± 0.8 °C"}
{"SMILES": "C[C@@H]1CN(c2cc(=O)n(C)c3ccc(C#N)nc23)[C@@H](C)CN1Cc1ccc(S(=O)(=O)n2cnc(C3CC3)n2)cc1", "target": "DGKα human", "test": "PA production, inhibitor, PILS-Nir1 biosensor", "system": "HEK293A FKBP-DGKα", "setting": "added: rapamycin", "quantity": "IC50", "value": "340 nM"}
{"SMILES": "Fc1ccc(Nc2nc(NC3CCCCC3)c3ccccc3n2)cc1F", "target": "β2AR/β1AR TM6 chimera", "test": "β-arrestin2 recruitment, antagonist, BRET", "scale": "baseline: isoprenaline maximal response", "quantity": "maximal inhibition", "value": "1.5%"}
{"SMILES": "OB(O)c1sccc1/C=N/OCc1ccccc1", "target": "human pancreatic chymotrypsin", "test": "enzyme activity, inhibitor", "quantity": "IC50", "value": "> 100000 nM"}
{"SMILES": "Cn1ccc2cc(-n3c(=O)[nH]c4sc5c(c4c3=O)CCCC5)ccc21", "target": "rat rolipram binding site", "test": "radioligand binding", "setting": "10 µM, added: rolipram", "quantity": "inhibition", "value": "-7%"}
{"SMILES": "C=CC(=O)Nc1cccc(Cn2ncc3cnc(Nc4cnn(CCOC)c4)nc32)c1", "target": "TGFBR1 human", "test": "binding, KINOMEscan", "setting": "100 nM", "scale": "lower = stronger binding", "quantity": "percent of control", "value": "100%"}
{"SMILES": "O=C(N/N=C/c1ccc2c(ccc[n+]2Cc2ccccc2)c1)c1cncc(C(=O)N/N=C/c2ccc3c(ccc[n+]3Cc3ccccc3)c2)n1", "target": "telomeric G4 DNA hybrid-2", "test": "FRET melting", "setting": "1 µM, DNA 0.2 µM, added: duplex DNA competitor 10 µM", "quantity": "ΔTm", "value": "22.7 ± 0.7 °C"}
{"SMILES": "O=C(C1CCc2ccccc2CC1)N1Cc2cccnc2Nc2ccc(N3CCOCC3)cc21", "target": "IDH1 R132H", "test": "2-HG production, RapidFire MS", "system": "MOG-G-UVW overexpressing IDH1 R132H", "quantity": "IC50", "value": "90.1 nM and 74.4 nM and 43.2 nM and 65.3 nM"}
{"SMILES": "c1ccc(-c2n[nH]cc2-c2ccnc3ccccc23)nc1", "target": "orf19.4144 Candida albicans", "test": "kinase binding, MIB/MS competition", "system": "Candida albicans lysate", "setting": "1 µM", "scale": "baseline: DMSO", "quantity": "log2 fold change", "value": -0.06}
{"SMILES": "Nc1ncc(-c2cc(-c3cnn(CC(F)(F)F)c3)ncc2F)nc1C(=O)NC1CNCC(F)C1 (stereo not shown)", "target": "SRMS", "test": "KINOMEscan", "setting": "1 µM", "scale": "baseline: DMSO control", "quantity": "remaining binding", "value": "96%"}
{"SMILES": "C[n+]1cc(/C=N/NC(=O)c2cccc(C(=O)N/N=C/c3cc4ccccc4[n+](C)c3)c2)cc2ccccc21", "target": "telomeric G4 DNA hybrid-2", "test": "FRET melting", "setting": "1 µM, DNA 0.2 µM, added: duplex DNA competitor 10 µM", "quantity": "ΔTm", "value": "13.3 ± 0.7 °C"}
{"SMILES": "NCCOc1cc(NC(=O)c2cc(OCc3cn([C@H]4O[C@@H](CO)[C@H](O)[C@@H](O)[C@@H]4O)nn3)cc(C(=O)Nc3cc(OCCN)c4ccccc4n3)n2)nc2ccccc12", "target": "c-myc G-quadruplex DNA", "test": "FRET melting", "setting": "1 µM, pH 7.4, added: 60 mM potassium", "quantity": "ΔTm", "value": "11.1 ± 0.4 K"}
{"SMILES": "O=C(N/N=C/c1cc[n+](Cc2ccccc2)c2ccccc12)N/N=C/c1cc[n+](Cc2ccccc2)c2ccccc12", "target": "telomeric G4 DNA hybrid-2", "test": "FRET melting", "setting": "1 µM, DNA 0.2 µM", "quantity": "ΔTm", "value": "14.2 ± 0.5 °C"}
{"SMILES": "CN1CCCNC(=O)CCC(=O)NCCCN(C)CCCNc2cccc3c2C(=O)c2cccc(c2C3=O)NCCC1", "target": "c-myc G-quadruplex DNA", "test": "DNA thermal stabilisation, CD melting", "setting": "4.5 µM, pH 7.4, added: 1.5 µM DNA, 5 mM KCl", "quantity": "ΔTm", "value": "9 ± 2.8 °C"}
{"note": "Repeated from above:"}
{"SMILES": "OB(O)c1sccc1/C=N/OCc1ccccc1", "target": "human pancreatic chymotrypsin", "test": "enzyme activity, inhibitor", "quantity": "IC50", "value": "> 100000 nM"}
